Experimental data from different studies.
A part holds a random share of what one study measured.
UniProt O43781, sequence (whole entry, looked up): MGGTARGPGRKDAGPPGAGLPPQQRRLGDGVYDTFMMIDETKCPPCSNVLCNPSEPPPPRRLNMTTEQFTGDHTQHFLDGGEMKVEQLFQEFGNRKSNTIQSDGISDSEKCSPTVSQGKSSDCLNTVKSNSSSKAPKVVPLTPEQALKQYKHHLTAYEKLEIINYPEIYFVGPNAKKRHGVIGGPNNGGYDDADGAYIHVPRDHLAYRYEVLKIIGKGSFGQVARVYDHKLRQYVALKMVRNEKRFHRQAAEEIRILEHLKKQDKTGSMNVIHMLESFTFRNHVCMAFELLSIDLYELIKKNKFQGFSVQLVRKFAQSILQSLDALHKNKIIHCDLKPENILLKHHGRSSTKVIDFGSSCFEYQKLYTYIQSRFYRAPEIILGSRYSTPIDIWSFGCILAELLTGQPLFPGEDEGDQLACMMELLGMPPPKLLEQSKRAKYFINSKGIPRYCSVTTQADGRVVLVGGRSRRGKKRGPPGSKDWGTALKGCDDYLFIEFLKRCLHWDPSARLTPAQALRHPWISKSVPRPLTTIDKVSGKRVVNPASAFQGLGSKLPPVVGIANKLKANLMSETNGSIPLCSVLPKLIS

Sample 1
Target: Histone acetyltransferase KAT6A, both winged helices, GST fusion (KAT6A, Homo sapiens, UniProt Q92794, residues 1-181)
Technique: protein binding microarray
Form: double-stranded DNA, one strand shown
Medium: in vitro
Concentration: not given
Setting: 8-mer, flanks averaged, mean of 2 arrays, mostly near background
Baseline: not given
Direction: higher = stronger binding
Construct (chain): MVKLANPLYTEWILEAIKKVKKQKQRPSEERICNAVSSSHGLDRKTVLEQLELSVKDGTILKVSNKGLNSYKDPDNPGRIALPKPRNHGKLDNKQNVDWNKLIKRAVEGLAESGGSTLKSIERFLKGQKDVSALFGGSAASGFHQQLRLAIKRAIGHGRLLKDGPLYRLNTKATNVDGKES
Sequence | E-score
AGAAAATA | -0.162
AATTAAAG | -0.215
CGGTTGTC | 0.064
TATCCCGA | -0.00325
CAGCAAAG | -0.0103
GACATATA | 0.00997
GTCCTATA | 0.0949
TATACTCA | -0.102

Sample 2
Target: Myc proto-oncogene protein, bHLH-zipper, MAX partner unstated (MYC, Homo sapiens, UniProt P01106, residues 368-449)
UniProt P01106, sequence (368-449, looked up): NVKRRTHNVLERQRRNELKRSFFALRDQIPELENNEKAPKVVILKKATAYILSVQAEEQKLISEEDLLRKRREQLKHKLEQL
Technique: protein-binding microarray
Form: double-stranded DNA, one strand shown
Medium: in vitro
Concentration: not given
Setting: k-mer, scored over probes, only values ≥0.25
Direction: higher = stronger binding
Sequence | E-score
CCCGCCCG | 0.264
ATGGCACG | 0.377
AGTACACG | 0.358
CGAGGTCA | 0.255
AGCGTGTC | 0.389
CGCGGCAC | 0.284
CATGCTGA | 0.4
TGAGCACA | 0.349

Other studies, line by line
Compound | target | assay | setting | scale | endpoint | result
CCC(=O)Nc1ccc2ncnc(Nc3cccc(Br)c3)c2c1 | DYRK3 (Homo sapiens, UniProt O43781) | enzyme activity, inhibitor | 0.5 µM | baseline: control | remaining activity | 92.3%
O=C(N[C@H]1CCCCC/C=C\C2C[C@@]2(C(=O)O)NC(=O)[C@@H]2C[C@@H](Oc3ccncc3)CN2C1=O)OC1CCCC1 (stereo partly drawn) | EGFR (Homo sapiens, UniProt P00533, T790M) | cell-free assay, competition with immobilised ligand | 1 µM |  | remaining binding | 91%

Repeated from above (sample 1):
Sequence | E-score
AATTAAAG | -0.215
CGGTTGTC | 0.064
